Measurements collected from several papers.
Each line is one published result; not all experiments were run side by side. Several values in a cell are separate wells, animals, samples, runs or records. ± gives the spread as reported.
Cd1d1: Cd1d1 (Mus musculus, UniProt P11609)
Sequence of UniProt P11609 (whole entry, looked up): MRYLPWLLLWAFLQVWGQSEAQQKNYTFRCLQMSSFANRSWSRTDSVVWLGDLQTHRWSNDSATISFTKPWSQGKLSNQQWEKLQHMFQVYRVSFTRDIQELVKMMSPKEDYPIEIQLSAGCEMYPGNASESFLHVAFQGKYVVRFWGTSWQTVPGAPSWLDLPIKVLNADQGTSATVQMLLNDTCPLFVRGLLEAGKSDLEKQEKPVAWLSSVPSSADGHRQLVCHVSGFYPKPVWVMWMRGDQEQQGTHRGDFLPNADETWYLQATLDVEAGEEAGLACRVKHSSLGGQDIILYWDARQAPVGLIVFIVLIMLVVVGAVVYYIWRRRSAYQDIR
Sigma-2 receptor: Sigma-2 receptor (Cavia porcellus, UniProt H0V073)
MAPT neurofibrillary tangles: Microtubule-associated protein tau, neurofibrillary tangles (MAPT, Homo sapiens, UniProt P10636)
Sequence of UniProt P10636 (whole entry, looked up): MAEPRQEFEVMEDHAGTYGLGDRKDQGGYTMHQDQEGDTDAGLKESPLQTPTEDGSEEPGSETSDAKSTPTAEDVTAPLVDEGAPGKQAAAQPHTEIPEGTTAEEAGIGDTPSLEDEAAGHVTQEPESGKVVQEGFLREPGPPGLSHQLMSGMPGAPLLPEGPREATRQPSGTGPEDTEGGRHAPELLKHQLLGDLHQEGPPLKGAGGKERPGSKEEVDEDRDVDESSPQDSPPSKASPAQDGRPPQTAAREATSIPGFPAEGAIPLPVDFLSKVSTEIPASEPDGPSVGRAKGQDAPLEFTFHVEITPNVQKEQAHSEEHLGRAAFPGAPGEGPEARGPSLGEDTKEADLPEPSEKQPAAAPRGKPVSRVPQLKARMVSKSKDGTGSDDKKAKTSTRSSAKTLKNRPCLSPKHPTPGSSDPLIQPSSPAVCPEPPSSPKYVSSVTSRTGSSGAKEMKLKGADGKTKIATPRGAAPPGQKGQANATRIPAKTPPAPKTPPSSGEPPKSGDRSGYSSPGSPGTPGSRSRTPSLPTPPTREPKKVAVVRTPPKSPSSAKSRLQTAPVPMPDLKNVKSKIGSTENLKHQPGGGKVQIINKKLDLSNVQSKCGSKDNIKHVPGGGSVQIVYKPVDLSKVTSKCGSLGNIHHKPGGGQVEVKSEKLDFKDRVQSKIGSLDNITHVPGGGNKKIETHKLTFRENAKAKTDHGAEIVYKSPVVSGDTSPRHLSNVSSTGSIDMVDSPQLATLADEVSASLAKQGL
SLC10A1: Hepatic sodium/bile acid cotransporter (SLC10A1, Homo sapiens, UniProt Q14973)
Sequence of UniProt Q14973 (whole entry, looked up): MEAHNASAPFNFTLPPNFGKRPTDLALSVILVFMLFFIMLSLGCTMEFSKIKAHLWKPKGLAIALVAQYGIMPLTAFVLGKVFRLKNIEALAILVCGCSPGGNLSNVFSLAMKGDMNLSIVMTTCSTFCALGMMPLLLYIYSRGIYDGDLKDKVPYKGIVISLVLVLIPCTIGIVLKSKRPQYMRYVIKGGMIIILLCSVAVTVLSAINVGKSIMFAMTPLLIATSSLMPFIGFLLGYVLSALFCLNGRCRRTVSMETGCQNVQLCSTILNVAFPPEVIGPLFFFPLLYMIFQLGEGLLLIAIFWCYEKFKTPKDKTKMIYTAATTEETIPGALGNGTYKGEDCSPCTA
IDE: Insulin-degrading enzyme (IDE, Homo sapiens, UniProt P14735)
Sequence of UniProt P14735 (whole entry, looked up): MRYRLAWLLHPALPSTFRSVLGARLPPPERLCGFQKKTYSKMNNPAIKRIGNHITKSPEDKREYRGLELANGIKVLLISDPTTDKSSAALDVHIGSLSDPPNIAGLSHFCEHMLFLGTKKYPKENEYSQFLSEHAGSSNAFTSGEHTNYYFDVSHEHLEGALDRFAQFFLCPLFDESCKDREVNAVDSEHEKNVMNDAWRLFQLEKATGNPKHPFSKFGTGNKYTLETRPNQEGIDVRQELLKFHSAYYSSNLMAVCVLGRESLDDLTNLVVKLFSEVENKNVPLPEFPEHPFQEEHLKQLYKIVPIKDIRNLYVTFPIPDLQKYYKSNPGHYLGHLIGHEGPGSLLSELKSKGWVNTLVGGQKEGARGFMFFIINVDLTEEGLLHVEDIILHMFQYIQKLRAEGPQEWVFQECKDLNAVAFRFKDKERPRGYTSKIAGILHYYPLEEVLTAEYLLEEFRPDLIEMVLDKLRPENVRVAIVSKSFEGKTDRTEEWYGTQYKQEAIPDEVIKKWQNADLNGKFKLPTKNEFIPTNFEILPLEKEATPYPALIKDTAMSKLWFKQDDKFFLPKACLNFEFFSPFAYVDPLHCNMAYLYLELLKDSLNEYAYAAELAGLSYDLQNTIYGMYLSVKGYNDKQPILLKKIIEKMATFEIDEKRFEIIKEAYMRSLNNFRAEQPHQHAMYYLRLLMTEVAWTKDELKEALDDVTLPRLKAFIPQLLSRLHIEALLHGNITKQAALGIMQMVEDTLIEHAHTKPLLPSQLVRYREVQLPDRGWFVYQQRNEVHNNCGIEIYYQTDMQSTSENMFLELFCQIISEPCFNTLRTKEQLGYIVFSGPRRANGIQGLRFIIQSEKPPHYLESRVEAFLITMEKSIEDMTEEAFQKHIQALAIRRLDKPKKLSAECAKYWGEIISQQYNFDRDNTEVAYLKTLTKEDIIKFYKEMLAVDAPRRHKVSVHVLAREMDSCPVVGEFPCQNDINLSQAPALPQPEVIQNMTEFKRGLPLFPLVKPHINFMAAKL
SLC29A1: Equilibrative nucleoside transporter 1 (SLC29A1, Homo sapiens, UniProt Q99808)
Sequence of UniProt Q99808 (whole entry, looked up): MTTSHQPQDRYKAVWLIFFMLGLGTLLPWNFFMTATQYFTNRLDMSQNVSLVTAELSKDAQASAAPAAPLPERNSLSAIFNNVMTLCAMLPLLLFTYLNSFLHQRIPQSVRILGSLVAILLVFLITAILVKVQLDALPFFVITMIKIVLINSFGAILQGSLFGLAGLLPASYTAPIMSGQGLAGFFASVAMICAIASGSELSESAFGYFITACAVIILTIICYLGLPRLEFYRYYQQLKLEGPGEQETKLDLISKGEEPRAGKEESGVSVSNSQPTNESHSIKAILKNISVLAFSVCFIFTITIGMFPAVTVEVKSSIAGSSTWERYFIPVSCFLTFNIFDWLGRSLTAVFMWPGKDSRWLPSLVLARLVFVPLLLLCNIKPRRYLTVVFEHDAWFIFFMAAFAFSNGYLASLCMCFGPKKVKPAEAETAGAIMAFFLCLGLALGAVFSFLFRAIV
MAPT fibrils: Microtubule-associated protein tau, fibrils (MAPT, Homo sapiens, UniProt P10636)
Sequence of UniProt Q9HWP3 (whole entry, looked up): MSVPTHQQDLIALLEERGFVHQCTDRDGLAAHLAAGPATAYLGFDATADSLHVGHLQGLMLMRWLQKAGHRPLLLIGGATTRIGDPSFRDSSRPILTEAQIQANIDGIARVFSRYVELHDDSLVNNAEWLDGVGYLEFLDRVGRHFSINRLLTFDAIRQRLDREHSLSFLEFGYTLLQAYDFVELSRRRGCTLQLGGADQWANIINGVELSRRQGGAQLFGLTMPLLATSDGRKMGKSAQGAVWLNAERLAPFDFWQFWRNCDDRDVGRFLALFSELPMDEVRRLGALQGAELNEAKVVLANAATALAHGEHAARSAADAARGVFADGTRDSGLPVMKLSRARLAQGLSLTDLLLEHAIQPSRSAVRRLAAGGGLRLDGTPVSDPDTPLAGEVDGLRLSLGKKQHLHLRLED
Sequence of UniProt A3M8H2 (whole entry, looked up): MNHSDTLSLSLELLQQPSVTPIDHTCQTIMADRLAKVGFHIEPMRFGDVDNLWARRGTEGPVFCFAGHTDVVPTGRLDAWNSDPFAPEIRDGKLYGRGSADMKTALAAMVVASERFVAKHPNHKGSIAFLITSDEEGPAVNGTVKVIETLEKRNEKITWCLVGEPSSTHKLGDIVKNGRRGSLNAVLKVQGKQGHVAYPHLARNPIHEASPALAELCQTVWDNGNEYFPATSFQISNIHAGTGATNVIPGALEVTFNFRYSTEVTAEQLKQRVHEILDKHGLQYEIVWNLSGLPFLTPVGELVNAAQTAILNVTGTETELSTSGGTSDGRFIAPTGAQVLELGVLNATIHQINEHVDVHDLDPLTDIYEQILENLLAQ
Sequence of UniProt P97287 (whole entry, looked up): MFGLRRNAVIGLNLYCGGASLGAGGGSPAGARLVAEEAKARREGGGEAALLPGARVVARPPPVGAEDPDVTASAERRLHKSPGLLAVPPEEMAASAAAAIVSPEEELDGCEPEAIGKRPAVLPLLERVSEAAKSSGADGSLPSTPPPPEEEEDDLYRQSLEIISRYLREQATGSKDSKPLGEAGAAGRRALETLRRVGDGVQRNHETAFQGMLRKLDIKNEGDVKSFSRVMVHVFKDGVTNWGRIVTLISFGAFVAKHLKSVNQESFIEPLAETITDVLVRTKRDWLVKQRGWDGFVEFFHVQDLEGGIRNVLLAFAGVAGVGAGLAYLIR
Sequence of UniProt P11275 (whole entry, looked up): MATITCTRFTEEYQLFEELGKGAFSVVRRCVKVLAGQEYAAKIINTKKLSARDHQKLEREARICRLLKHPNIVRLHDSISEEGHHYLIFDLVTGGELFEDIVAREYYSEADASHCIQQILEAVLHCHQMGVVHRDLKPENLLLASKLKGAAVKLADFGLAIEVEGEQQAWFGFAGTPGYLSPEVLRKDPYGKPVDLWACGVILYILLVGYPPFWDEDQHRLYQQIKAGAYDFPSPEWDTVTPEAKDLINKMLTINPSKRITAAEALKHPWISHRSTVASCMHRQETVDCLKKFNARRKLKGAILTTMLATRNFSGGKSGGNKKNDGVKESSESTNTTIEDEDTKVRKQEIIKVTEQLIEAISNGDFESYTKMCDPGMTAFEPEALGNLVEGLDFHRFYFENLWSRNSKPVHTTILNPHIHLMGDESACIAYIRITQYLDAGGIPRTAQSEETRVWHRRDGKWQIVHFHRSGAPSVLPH
Sequence of UniProt Q8IM16 (whole entry, looked up): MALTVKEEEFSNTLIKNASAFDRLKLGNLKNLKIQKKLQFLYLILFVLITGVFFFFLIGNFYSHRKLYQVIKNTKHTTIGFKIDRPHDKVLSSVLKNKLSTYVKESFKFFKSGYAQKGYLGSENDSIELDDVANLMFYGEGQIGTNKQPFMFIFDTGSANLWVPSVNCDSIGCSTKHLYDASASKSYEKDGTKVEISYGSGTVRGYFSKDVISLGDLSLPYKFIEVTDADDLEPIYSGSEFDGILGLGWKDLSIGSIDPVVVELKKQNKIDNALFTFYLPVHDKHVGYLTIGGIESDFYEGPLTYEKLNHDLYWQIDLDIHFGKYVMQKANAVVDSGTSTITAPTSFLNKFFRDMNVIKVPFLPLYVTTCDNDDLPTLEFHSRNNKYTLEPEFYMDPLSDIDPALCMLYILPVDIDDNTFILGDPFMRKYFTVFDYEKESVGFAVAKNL

SMILES	target	assay	test system	conditions	Ki
CCCCCCCCCCCCCC[C@@H](O)[C@@H](O)[C@H](CO[C@H]1O[C@H](CO)[C@H](O)[C@H](O)[C@H]1O)NC(=O)CCCCCCCc1ccc(OC)cc1	Cd1d1	competitive binding on microarray		with: surface-printed ligand	0.45 ± 0.15 µM
CC[C@H](C)[C@@H]1NC(=O)[C@H](C)NC(=O)[C@H](CCCNC(=N)N)NC(=O)[C@H](CC(C)C)NC(=O)[C@H](NC(=O)[C@H](C)N(C)C(=O)[C@H](C)N(C)C(=O)OC)CSCc2ccc(cc2)-c2ccc(cc2)CSC[C@@H](C(=O)N[C@H](C(=O)N[C@@H](CC(N)=O)C(=O)N[C@@H](CC(C)C)C(=O)N[C@@H](C)C(=O)N[C@@H](CCC(N)=O)C(=O)N[C@@H](C)C(=O)N[C@@H](CC(C)C)C(=O)N[C@@H](CC(C)C)C(=O)N[C@@H](CC(N)=O)C(N)=O)C(C)C)NC(=O)[C@H](CC(=O)O)NC(=O)CNC1=O	Induced myeloid leukemia cell differentiation protein Mcl-1 homolog (Mus musculus, UniProt P97287)	ligand displacement, FP			0.022 µM
CCCCCCCCCCCCCCC(O)C(O)C(COC1OC(CO)C(O)C(O)C1O)NC(=O)CCCCCCCc1ccc(F)cc1 (stereo not drawn)	Cd1d1	competitive binding on microarray		with: surface-printed ligand	0.21 ± 0.05 µM
CCC(=O)c1ccc2c(c1)sc(=O)n2CCN(C)C12CC3CC(CC(C3)C1)C2	Sigma-2 receptor	radioligand binding	guinea pig brain	with: [3H]DTG with (+)-pentazocine	0.113 ± 0.016 µM
Fc1ccc(-c2ccc3c(c2)[nH]c2ccncc23)cn1	MAPT neurofibrillary tangles	binding, radioligand competition	AD brain homogenate	2 h, 37 °C, with: [3H]THK-523	> 1 µM
C[C@H](CCC(=O)NCC(=O)O)[C@H]1CC[C@H]2[C@@H]3CC[C@@H]4C[C@H](O)CC[C@]4(C)[C@H]3C[C@H](O)[C@]12C	SLC10A1	transporter uptake, inhibitor, radiometric			13.6 µM
Cc1cc(N(C)CCN(C)C)cc(C)c1OCC(=O)N[C@@H](Cc1ccccc1)[C@H](O)C(=O)N1CSC(C)(C)[C@H]1C(=O)N[C@H]1c2ccccc2C[C@H]1O	Plasmepsin IV (PMIV, Plasmodium falciparum 3D7, UniProt Q8IM16)	enzyme activity, inhibitor, fluorescence		pH 5	0.026 µM
C[C@H](CCC(=O)NCCS(=O)(=O)O)[C@H]1CC[C@H]2[C@@H]3CC[C@@H]4C[C@H](O)CC[C@]4(C)[C@H]3C[C@H](O)[C@]12C	SLC10A1	transporter uptake, inhibitor, radiometric			13.3 µM
CNc1ccc(-c2nc3ccc(O)cc3s2)cc1	MAPT neurofibrillary tangles	binding, radioligand competition	AD brain homogenate	2 h, 37 °C, with: [3H]THK-523	> 1 µM
O=C(Nc1cccn(O)c1=S)c1cccs1	IDE	substrate degradation, inhibitor		mean of insulin, Aβ, substrate V	55 µM
Nc1ccn([C@@H]2O[C@H](CO)[C@@H](O)[C@H]2O)c(=O)n1	Trichomonas vaginalis higher-affinity nucleoside transporter	inhibitor	trophozoites, Trichomonas vaginalis	higher-affinity phase, rough estimate, with: [3H]-thymidine 125 nM	~15 µM
O=C(Nc1cccn(O)c1=S)c1ccccc1	IDE	substrate degradation, fluorescence polarisation		mean of physiological substrates	37 µM
Nc1ccc(-c2ccc3cc(OCCOCCOCCOCCOCCF)ccc3n2)cc1	MAPT neurofibrillary tangles	binding, radioligand competition	AD brain homogenate	2 h, 37 °C, with: [3H]THK-523	> 1 µM
Cn1c2c(c3ccccc31)CN(CCCCNC(=O)c1nc3ccccc3[nH]1)CC2	Slc6a3 (Rattus norvegicus, UniProt P23977)	cell-free assay, inhibitor			1.06 µM
CCCc1ccc2c(c1)sc(=O)n2CCN(C)C12CC3CC(CC(C3)C1)C2	Sigma-2 receptor	radioligand binding	guinea pig brain	with: [3H]DTG with (+)-pentazocine	0.44 ± 0.04 µM
CC(O)=C(C#N)C(=O)Nc1ccc(-c2cccc(Cl)c2Cl)cc1Cl	dihydroorotate dehydrogenase (Toxoplasma gondii, UniProt Q8MXD1)				16 µM
O=S(=O)(Nc1cccn(O)c1=S)c1ccc(Cl)s1	IDE	substrate degradation, fluorescence polarisation		mean of physiological substrates	11 µM
O=c1sc2ccccc2n1CCNC12CC3CC(CC(C3)C1)C2	Sigma-2 receptor	radioligand binding	guinea pig brain	with: [3H]DTG with (+)-pentazocine	0.0641 ± 0.00325 µM
C[C@H](CCC(=O)NCCS(=O)(=O)O)[C@H]1CC[C@H]2[C@@H]3[C@@H](O)C[C@@H]4C[C@H](O)CC[C@]4(C)[C@H]3CC[C@]12C	SLC10A1	transporter uptake, inhibitor, radiometric			13.5 µM
O=C(O)Cc1cn2nc(-c3ccc(Cl)cc3)ccc2n1	Calcium/calmodulin-dependent protein kinase type II subunit alpha (Rattus norvegicus, UniProt P11275)	binding, competitor	HEK293T overexpressing CaMKIIα, whole-cell homogenate	with: [3H]HOCPCA 40 nM	2.6 µM
OC[C@H]1O[C@@H](n2cnc3c(O)ncnc32)[C@H](O)[C@@H]1O	SLC29A1	transporter uptake, inhibitor, radiometric			25 µM
Cc1csc(S(=O)(=O)Nc2cccn(O)c2=S)c1	IDE	substrate degradation, inhibitor		mean of insulin, Aβ, substrate V	14 µM
Nc1ncnc2c1ncn2[C@@H]1O[C@H](COP(=O)(O)OP(=O)(O)OC[C@H]2OC(O)[C@H](O)[C@@H]2O)[C@@H](O)[C@H]1O (stereo partly drawn)	malonyl-CoA reductase, C-terminal domain (Chloroflexus aurantiacus, UniProt A9WIU3)	competitive inhibitor		pH 8.0, 25 °C, with: NADPH, malonyl-CoA 1 mM	1100 ± 140 µM

SMILES	target	assay	test system	conditions	Ki
O=S(=O)(Nc1ccc(=S)n(O)c1)c1cccs1	IDE	substrate degradation, inhibitor		mean of insulin, Aβ, substrate V	43 µM
C[C@H](CCC(=O)O)[C@H]1CC[C@H]2[C@@H]3C[C@H](O)[C@@H]4C[C@H](O)CC[C@]4(C)[C@H]3CC[C@]12C	SLC10A1	transporter uptake, inhibitor, radiometric			10.4 µM
C[C@H](CS)C(=O)N1CCC[C@H]1C(=O)O	Succinyl-diaminopimelate desuccinylase (dapE, Acinetobacter baumannii, UniProt A3M8H2)	binding, thermal shift			9.4 ± 0.3 µM
COc1cc2c(cc1OC)CN(CCCCNC(=O)c1cc(C)ccc1OCCF)CC2	Pde10a (Rattus norvegicus, UniProt Q9QYJ6)	ligand displacement, radioligand		cell membranes	> 1 µM
O=S(=O)(Nc1cccn(O)c1=S)c1cccs1	IDE	substrate degradation, fluorescence polarisation		mean of physiological substrates	7 µM
CC1(CCN2CCc3ccccc3C2)Cc2cc(Cl)ccc2C1=O (stereo not drawn)	DRD4 (Homo sapiens, UniProt P21917)	binding, radioligand binding		with: [3H]N-methylspiperone	0.977 µM
O=C(/C=C/c1ccc([N+](=O)[O-])cc1)c1nccs1	MAPT fibrils	fibril binding, thioflavin T competition		1 µM fibrils, with: thioflavin T 4 µM	> 1 µM
C[C@H](CCC(=O)O)[C@H]1CC[C@H]2[C@@H]3CC[C@@H]4C[C@H](O)CC[C@]4(C)[C@H]3CC[C@]12C	SLC10A1	transporter uptake, inhibitor, radiometric			4.09 µM and ~5 µM
Nc1ccc(-c2ccc3cc(OCCOCCN4CCOC4=O)ccc3n2)cc1	MAPT neurofibrillary tangles	binding, radioligand competition	AD brain homogenate	2 h, 37 °C, with: [3H]THK-523	0.035 ± 0.019 µM
Cc1ccc(N2CN(CC(=O)Nc3cccc(Cl)c3)S(=O)(=O)c3cccnc32)cc1	Tyrosine--tRNA ligase 1 (tyrS1, Pseudomonas aeruginosa, UniProt Q9HWP3)	aminoacylation, inhibitor		with: Tyr 100 µM, ATP 2.5 mM	4.91 µM
CN(C)c1ccc(/C=C/C(=O)c2nc3ccccc3s2)cc1	MAPT fibrils	fibril binding, thioflavin T competition		1 µM fibrils, with: thioflavin T 4 µM	> 1 µM
Nc1ccc(-c2ccc3cc(OCCOCCOCCOCCOCCOCCF)ccc3n2)cc1	MAPT neurofibrillary tangles	binding, radioligand competition	AD brain homogenate	2 h, 37 °C, with: [3H]THK-523	> 1 µM
On1ccccc1=S	IDE	substrate degradation, fluorescence polarisation		mean of physiological substrates	101 µM
Nc1nc(Cl)nc2c1ncn2[C@@H]1O[C@H](CO)[C@@H](O)[C@@H]1F	SLC29A1	transporter uptake, inhibitor, radiometric			40 µM
CN1CCC2(CC1)c1ccccc1N(Cc1ccc(C(=O)NO)s1)C2c1cccc(Cl)c1 (stereo not drawn)	Histone deacetylase 8 (Schistosoma mansoni, UniProt A5H660)	enzyme activity, inhibitor, steady-state kinetics			0.21 µM
C[C@H](CCC(=O)O)[C@H]1CC[C@H]2[C@@H]3[C@@H](O)C[C@@H]4C[C@H](O)CC[C@]4(C)[C@H]3CC[C@]12C	SLC10A1	transporter uptake, inhibitor, radiometric			10.9 µM
N[C@H](C(=O)O)[C@@H]1C[C@@H]1C(=O)O	kainate receptor, rat	[3H]kainate displacement	cortical synaptosomes		0.31 µM
O=S(=O)(Nc1cccn(O)c1=S)c1cccc2nsnc12	IDE	substrate degradation, inhibitor		mean of insulin, Aβ, substrate V	16 µM
CCCCCCCCCCCCCC[C@@H](O)[C@@H](O)[C@H](CO[C@H]1O[C@H](CO)[C@H](O)[C@H](O)[C@H]1O)NC(=O)CCCCCCCc1ccc(C(F)(F)F)cc1	Cd1d1	competitive binding on microarray		with: surface-printed ligand	1.2 ± 0.6 µM
C[C@H](CCC(=O)NCC(=O)O)[C@H]1CC[C@H]2[C@@H]3[C@H](O)C[C@@H]4C[C@H](O)CC[C@]4(C)[C@H]3CC[C@]12C	SLC10A1	transporter uptake, inhibitor, radiometric			13.2 µM
Nc1ncnc2c1ncn2[C@@H]1O[C@H](COP(=O)(O)OP(=O)(O)O)[C@@H](O)[C@H]1O	Heterotrimeric kinesin-II, with KAP-1 subunit (Caenorhabditis elegans, UniProt Q19633+Q965T6)	microtubule gliding velocity, competitive inhibitor		21 °C, with: Mg-ATP	42 µM
O=c1ccn([C@@H]2O[C@H](CO)[C@@H](O)[C@H]2O)c(=O)[nH]1	SLC29A1	transporter uptake, inhibitor, radiometric			89 µM

Excerpt of the above:
SMILES	target	assay	test system	conditions	Ki
Nc1nc(Cl)nc2c1ncn2[C@@H]1O[C@H](CO)[C@@H](O)[C@@H]1F	SLC29A1	transporter uptake, inhibitor, radiometric			40 µM
CN1CCC2(CC1)c1ccccc1N(Cc1ccc(C(=O)NO)s1)C2c1cccc(Cl)c1 (stereo not drawn)	Histone deacetylase 8 (Schistosoma mansoni, UniProt A5H660)	enzyme activity, inhibitor, steady-state kinetics			0.21 µM
C[C@H](CCC(=O)O)[C@H]1CC[C@H]2[C@@H]3[C@@H](O)C[C@@H]4C[C@H](O)CC[C@]4(C)[C@H]3CC[C@]12C	SLC10A1	transporter uptake, inhibitor, radiometric			10.9 µM
N[C@H](C(=O)O)[C@@H]1C[C@@H]1C(=O)O	kainate receptor, rat	[3H]kainate displacement	cortical synaptosomes		0.31 µM
O=S(=O)(Nc1cccn(O)c1=S)c1cccc2nsnc12	IDE	substrate degradation, inhibitor		mean of insulin, Aβ, substrate V	16 µM
CCCCCCCCCCCCCC[C@@H](O)[C@@H](O)[C@H](CO[C@H]1O[C@H](CO)[C@H](O)[C@H](O)[C@H]1O)NC(=O)CCCCCCCc1ccc(C(F)(F)F)cc1	Cd1d1	competitive binding on microarray		with: surface-printed ligand	1.2 ± 0.6 µM
C[C@H](CCC(=O)NCC(=O)O)[C@H]1CC[C@H]2[C@@H]3[C@H](O)C[C@@H]4C[C@H](O)CC[C@]4(C)[C@H]3CC[C@]12C	SLC10A1	transporter uptake, inhibitor, radiometric			13.2 µM
